Measurements gathered from unrelated publications.
Lines come from different studies, so protocols differ. Numbers after ± are the reported error.

Substance | cell line | assay | test system | setting | how to read | endpoint | result
CSCC[C@@H]1NC(=O)[C@H](CCCNC(=N)N)NC(=O)[C@H](C(C)C)NC(=O)[C@H](C(C)C)NC(=O)[C@H]([C@@H](C)O)NC(=O)[C@H](Cc2c[nH]c3ccccc23)NC(=O)CNC(=O)[C@H](CO)NC(=O)[C@H](Cc2ccc(O)cc2)NC1=O | MCF7, synchronized | microinjection, time-lapse microscopy |  | 50 µM |  | time in mitosis | 3 h
CN(C)c1ccc(C2Nc3ccc(-c4ccccc4)cc3NC3=C2C(=O)CC(C)(C)C3)cc1 (stereo not shown) | H4 | cytoprotection |  | added: thapsigargin 7.5 µM |  | EC50 | 14.3 ± 0.31 µM
LRRFSTMPFMFCNINNVCNF | HUVEC | cell proliferation, WST-1 | peptide | 100 µM, 72 h | baseline: vehicle | inhibition | 67.5 ± 2.58%
RXRRXRRXRRXRXB (PMO conjugate) | pLuc705 cells | flow cytometry | peptide | 2 µM, 24 h, 10% serum, unit not given | higher = more uptake | cellular uptake | 92
O=Cc1c(-c2ccccc2)[nH]c2ccccc12 | HEK293 | cell growth or viability |  | 50 µM |  | viability | 139%
RBRBRBRBRBRBRBRBB (PMO conjugate) | pLuc705 cells | flow cytometry | peptide | 2 µM, 24 h, 10% serum, unit not given | higher = more uptake | cellular uptake | 111
CS(=O)(=O)CCNCc1ccc(-c2ccc3ncnc(Nc4ccc(OCc5cccc(F)c5)c(Cl)c4)c3c2)o1 | ex vivo 231-BR-HER2 cells | MTT |  | 8 or 10 µM, 72 h | baseline: lines from vehicle-treated mice | viability | no effect
Ac-ALPCA-NH2 (N-acetyl, C-amide) | GM7373 bovine endothelial | cell proliferation, inhibitor | peptide | 24 h, added: 0.55 nM FGF2, 0.4% FCS |  | ID50 | > 1000 µM
C#C[C@@]1(O)[C@@H](CO)O[C@@H](n2cc(I)c3c(N)ncnc32)[C@@H]1O | SR | cell growth or viability, SRB |  | 48 h |  | GI50 | 0.28 µM
CC(C)=CCc1c(-c2ccccc2)n(CC=C(C)C)c2ccccc12 | HEK293 | cell growth or viability |  | 50 µM |  | viability | 105%
LRRFSTMPFMFSNINNVSNF | HUVEC | cell migration, real-time cell analysis | peptide | 50 µM, added: full medium chemoattractant | baseline: vehicle | inhibition | 92.6 ± 0.97%
Cc1ccccc1-c1cc2ccccc2[nH]1 | HEK293 NF-κB luciferase reporter | reporter gene, item: NF-κB |  | 50 µM, 6 h, added: TNFα |  | inhibition | 0%
O=C(/C=C/c1cccs1)Nc1scc(-c2ccccc2)c1C(=O)O | normal human fibroblasts | item: MBNL1-independent exons |  | up to 500 µM, 48 h |  | alternative splicing | no effect
c1ccc(C2Cc3ccccc3N2)cc1 (stereo not shown) | HEK293 | cell growth or viability |  | 50 µM |  | viability | 87.9%
CCCCN(CCCC)c1ccc(C2Nc3ccc(Br)cc3NC3=C2C(=O)CC(C)(C)C3)cc1 (stereo not shown) | H4 | cytoprotection |  | added: thapsigargin 7.5 µM |  | EC50 | ~13 µM
O=C1c2c(O)ccc(O)c2C(=O)c2c(NCCNCCO)ccc(NCCNCCO)c21 | RS4-11 |  |  | 72 h, added: cytotoxic drug | below 1 means synergy | combination index | 0.89 ± 0.1
C=C(C[C@H](N)C(=O)O)C(=O)Nc1ccccc1 | MCF7 cells | cell growth inhibition |  | 72 h | baseline: vehicle | lowest significantly active concentration | ≥ 1 µM
CCN(CC)c1ccc(C2Nc3ccc(C(=O)c4ccccc4)cc3NC3=C2C(=O)CC(C)(C)C3)cc1 (stereo not shown) | H4 | cytoprotection |  | added: thapsigargin 7.5 µM |  | EC50 | 11.4 ± 2.26 µM
c1ccc(Cn2c(-c3ccccc3)cc3ccccc32)cc1 | HEK293 | cell growth or viability |  | 50 µM |  | viability | 96.3%
CCn1c(=O)c(-c2cc(NC(=O)Nc3ccccc3)c(F)cc2Br)cc2cnc(NC)cc21 | U-118-MG | cell growth or viability |  |  |  | GI50 | 0.269 µM
C(=NOCc1ccccc1)c1c(-c2ccccc2)[nH]c2ccccc12 | HEK293 NF-κB luciferase reporter | reporter gene, item: NF-κB |  | 50 µM, 6 h, added: TNFα |  | inhibition | 50.2 ± 3.9%
ANKHYF | bovine aortic endothelial cells |  | peptide | 2 µg coated per well, 30 to 60 min | baseline: thrombospondin-coated wells | adherent cells | 0%
Ac-ESLARPCAPGAPAE-NH2 (N-acetyl, C-amide) | GM7373 bovine endothelial | cell proliferation, inhibitor | peptide | 24 h, added: 0.55 nM FGF2, 0.4% FCS |  | ID50 | 20 µM

Substance | cell line | assay | test system | setting | how to read | endpoint | result
C[C@H](C(=O)Oc1ccc(-c2cc(=S)ss2)cc1)c1ccc2cc(OC(=O)CCCO[N+](=O)[O-])ccc2c1 | HPDE and BxPC-3 | cell growth |  | 24 h | baseline: HPDE over BxPC-3 | IC50 ratio | ~147 fold
Cc1ccc(NC(=O)c2ccc(CN3CCN(C)CC3)cc2)cc1Nc1nccc(-c2cccnc2)n1 | LNCaP expressing Abi1 Y213F |  |  | 2 µM, 2 h, added: 10 ng/mL PDGF |  | macropinocytic uptake | decreased
O=C(/C=C/N1C[C@H]2C[C@@H]1CN2c1ccccn1)c1ccccc1O | C2C12 myoblasts | myoblast differentiation |  |  |  | effective concentration | 1 µM
Ac-ARPSA-NH2 (N-acetyl, C-amide) | GM7373 bovine endothelial | cell proliferation, inhibitor | peptide | 24 h, added: 0.55 nM FGF2, 0.4% FCS |  | ID50 | > 1000 µM
COc1ccc(C2=Nn3c(nnc3-c3[nH]nc4c3CCC4)SC2C)cc1 (stereo not shown) | CAL-33 | cell growth or viability |  |  |  | GI50 | 0.2 µM
Cn1c(=O)c(F)c(Nc2ccc(I)cc2F)c2c(=O)n(C[C@@H](O)CO)cnc21 | NIH3T3 in PANC/NIH microtissues | fibroblast toxicity |  | 168 h, chronic toxicity, unit not given | baseline: AC50 ATP over AC50 NanoLUC, day 7 | therapeutic window | 1.8
CC[C@H](C)[C@H](N)C(=O)N[C@H]1CSSC[C@@H](C(=O)N[C@H](C(N)=O)[C@@H](C)O)NC(=O)[C@H](CCCNC(=N)N)NC(=O)[C@H](Cc2c[nH]cn2)NC(=O)[C@H](Cc2c[nH]cn2)NC(=O)CNC(=O)[C@H](Cc2c[nH]c3ccccc23)NC(=O)[C@H](CC(=O)O)NC(=O)[C@H](CCC(N)=O)NC(=O)[C@H](C(C)C)NC(=O)[C@H](C(C)C)NC1=O | human fetal RPE cells | fluorescence, item: C5b-9/ApoE |  | 1 µM, added: 10% human complement serum | baseline: positive control | complement activation | no effect
C/C(=N\N=c1/[nH]c(C)cs1)c1ccccn1 | Vero | cell growth or viability, SRB |  | 100 µg/mL, 48 h |  | inhibition | 65.5%
Nc1ncnc2c1nc(Sc1ccc(Cl)cc1)n2[C@@H]1O[C@@H]2COP(=O)(O)O[C@H]2[C@H]1O | CHO-K1 | fluorescein-WGA ratio imaging |  | concentration not given, 37 °C, medium pH 7.4 |  | cell surface pH | 6.9
NC(=O)c1ccc(-c2nc(-c3ccc4c(c3)OCO4)c(-c3ccccn3)[nH]2)cc1 | NIH3T3 | inhibitor, Sirius red staining |  | 5 µM, 48 h, added: TGF-β1 5 ng/mL | baseline: TGF-β1 alone | collagen content | inhibited
Fc1ccc(-c2cc3ccccc3[nH]2)cc1 | HEK293 | cell growth or viability |  | 50 µM |  | viability | 84.3%
exonuclease 1 (human) | NIH3T3 | confocal microscopy, item: YFP-tagged compound |  | concentration not given, PCNA replication foci, added: co-transfected CFP-PCNA |  | cells with early S-phase foci | 28%
COc1ccc(C(C)=NNC(=O)COc2ccc3c(C)cc(=O)oc3c2C)cc1OC | LPS-stimulated human macrophages | ELISA | conditioned medium | 5.3 µmol/mL, 48 h | baseline: dexamethasone, reduction | TNF-α level | 1.14 fold
COc1cc2ncnc(Nc3cccc(Cl)c3)c2cc1OC | BON | [3H]-thymidine uptake |  | 1 µM, 24 h, pre-treatment, added: GI hormones, EGF or TGFα |  | cell growth inhibition | inhibited
O=c1[nH]cc(F)c(=O)[nH]1 | mES-D3 cell | cardiomyocyte differentiation, RT-PCR, item: MHC |  | 240 h |  | ID50 | 0.037 ± 0.006 µg/mL
COCn1c(-c2ccccc2)cc2ccccc21 | HEK293 | cell growth or viability |  | 50 µM |  | viability | 107%
C/C(=N\N=C1/NC(=O)C(C)S1)c1ccccn1 (stereo not shown) | Vero | cell growth or viability, SRB |  | 100 µg/mL, 48 h |  | inhibition | 69.7%
COc1ccc(CC2COc3cc(OC)c(OC)c(OC)c3C2=O)cc1O (stereo not shown) | ARPE-19 | cell growth or viability, resazurin |  | 48 h |  | GI50 | > 100 µM
TCVCGS | bovine aortic endothelial cells |  | peptide | 2 µg coated per well, 30 to 60 min | baseline: thrombospondin-coated wells | adherent cells | 6%
Ac-ARPMA-NH2 (N-acetyl, C-amide) | GM7373 bovine endothelial | cell proliferation, inhibitor | peptide | 24 h, added: 0.55 nM FGF2, 0.4% FCS |  | ID50 | > 1000 µM
CCCCN(CCCC)c1ccc(C2Nc3ccc(-c4ccccc4)cc3NC3=C2C(=O)CC(C)(C)C3)cc1 (stereo not shown) | H4 | cytoprotection |  | added: thapsigargin 7.5 µM |  | EC50 | > 50 µM
Ac-ARPCG-NH2 (N-acetyl, C-amide) | GM7373 bovine endothelial | cell proliferation, inhibitor | peptide | 24 h, added: 0.55 nM FGF2, 0.4% FCS |  | ID50 | > 1000 µM
CNc1ncnc2c1ncn2[C@H]1C[C@H](OP(=O)(O)O)[C@@H](COP(=O)(O)O)O1 | MIN6 | antagonist, ELISA |  | 10 µM, added: 2-MeSADP 10 µM, glucose 16.7 mM |  | insulin secretion | inhibited

A few entries again:
Substance | cell line | assay | test system | setting | how to read | endpoint | result
Ac-ESLARPCAPGAPAE-NH2 (N-acetyl, C-amide) | GM7373 bovine endothelial | cell proliferation, inhibitor | peptide | 24 h, added: 0.55 nM FGF2, 0.4% FCS |  | ID50 | 20 µM
C[C@H](C(=O)Oc1ccc(-c2cc(=S)ss2)cc1)c1ccc2cc(OC(=O)CCCO[N+](=O)[O-])ccc2c1 | HPDE and BxPC-3 | cell growth |  | 24 h | baseline: HPDE over BxPC-3 | IC50 ratio | ~147 fold
Cc1ccc(NC(=O)c2ccc(CN3CCN(C)CC3)cc2)cc1Nc1nccc(-c2cccnc2)n1 | LNCaP expressing Abi1 Y213F |  |  | 2 µM, 2 h, added: 10 ng/mL PDGF |  | macropinocytic uptake | decreased
